Results of several laboratories.
Parts stem from different laboratories: compare values within a part only. pIC50: −log10 of the molar value.
Sequence of UniProt Q8S8P5 (169-264, looked up): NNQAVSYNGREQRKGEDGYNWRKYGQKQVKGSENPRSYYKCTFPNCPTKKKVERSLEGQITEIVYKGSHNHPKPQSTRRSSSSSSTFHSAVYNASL

Sample 1
Target: Ras GTPase-activating protein-binding protein 1, C-terminal RGG region (G3BP1, Homo sapiens, UniProt Q13283)
Sequence of UniProt Q13283 (whole entry, looked up): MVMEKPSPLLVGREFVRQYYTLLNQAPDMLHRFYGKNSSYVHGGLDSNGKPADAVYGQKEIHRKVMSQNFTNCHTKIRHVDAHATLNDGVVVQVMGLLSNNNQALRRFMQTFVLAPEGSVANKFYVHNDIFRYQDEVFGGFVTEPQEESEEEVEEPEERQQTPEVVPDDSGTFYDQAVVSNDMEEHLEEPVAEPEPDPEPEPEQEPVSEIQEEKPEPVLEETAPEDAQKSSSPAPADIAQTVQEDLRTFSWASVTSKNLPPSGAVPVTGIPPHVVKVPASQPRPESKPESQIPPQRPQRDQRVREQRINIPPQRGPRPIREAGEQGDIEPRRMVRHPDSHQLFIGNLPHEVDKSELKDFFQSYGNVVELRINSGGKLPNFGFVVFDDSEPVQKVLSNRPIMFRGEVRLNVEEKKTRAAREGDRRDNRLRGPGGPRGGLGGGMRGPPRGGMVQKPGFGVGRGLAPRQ
Technique: RNA Bind-n-Seq
Form: RNA
Sample: in vitro
Concentration: 1 µM
Setting: whole 134-nt RNA, ends assumed
With: 150 mM KCl
Baseline: input library
Direction: higher = stronger binding
Quantity: log2 enrichment
Shared flanks, not repeated: GGGAGUUCUACAGUCCGACGAUC … UGGAAUUCUCGGGUGUCAAGG
ACCAUGCAGGUGGGCAUCUUUGGGAAGUGGGGCAAGGGGGGGAUAGGGAGGGGGGUAACACUUUGGGCACAGGUGGUCCCAGGUCGUUUC: 2.19
UGGAUUAGAGAGAAAUUGAAUUUUUUCUUACUUGAACUCCUACUAAAAAGUGAACUAAAUAUUUUAUUGUAGUAAUGGCAUAGAGGAGCC: -1.45
UGUUUAUCCAACAUAUGAUUUUGCCUGCCCCAUAGUUGACAGCAUCGAAGGUGUUACACAUGCCCUGAGAACAACAGAAUACCAUGACAG: -0.908
AGUCCUGUGCUACACAUCGUAUGUACCGAAUCGGAAAAAGGUUUUUGGAAAAAAAGGAAAGUAUUAUGUUACGCCGUUCGGAUCUGCACU: -2.18
CUCAAGUCCUGUGCUACACAUCGUAUGUACCGAAUCGGGGCGGGGCGGGGCGGGAAAGUAUUAUGUUACGCCGUUCGGAUCUGCACUUCC: 2.42
UCCUGUGCUACACAUCGUAUGUACCGAAUCAAACCCCCCCAAAUUUUUUUAAACCCAAAAAAGUAUUAUGUUACGCCGUUCGGAUCUGCA: -0.605
UCCUGUGCUACACAUCGUAUGUACCGAAUCGGGGUUUUUUGGUUUUUUGGUUUUUUGGGAAAGUAUUAUGUUACGCCGUUCGGAUCUGCA: -1.01
AGUCCUGUGCUACACAUCGUAUGUACCGAAUCGGGAAAAAAAGGGAAAGGGAAAGGGAAAGUAUUAUGUUACGCCGUUCGGAUCUGCACU: 0.105

Sample 2
Target: Replicase polyprotein 1ab, nsp13 helicase (rep, Severe acute respiratory syndrome coronavirus 2, UniProt P0DTD1)
Action: inhibitor
Concentration: 20 µM
Quantity: inhibition
CCCCC/C=C\C/C=C\C/C=C\CCCCC(=O)O: 11.5%
Cc1ccc(-c2nc3ccc(C)cn3c2CC(=O)N(C)C)cc1: -5.87%
CCN(CC)CCN(Cc1ccc(-c2ccc(C(F)(F)F)cc2)cc1)C(=O)Cn1c(SCc2ccc(F)cc2)nc(=O)c2c1CCC2: 11.4%
CN1CCC(CNc2ccc3ncc(-c4cccc(OC(F)(F)F)c4)n3n2)CC1: 11.3%
CCc1nc(C(N)=O)c(Nc2ccc(N3CCC(N4CCN(C)CC4)CC3)c(OC)c2)nc1NC1CCOCC1: 1.19%
C[C@@H]1CN(Cc2ccc(F)cc2)CCN1C(=O)COc1ccc(Cl)cc1NC(N)=O: 5.6%
C=CCN1C[C@H](C)N([C@H](c2ccc(C(=O)N(CC)CC)cc2)c2cccc(O)c2)C[C@H]1C: 10.8%
COC(=O)[C@@]12OC[C@]34[C@H]([C@@H](O)[C@@H]1O)[C@@]1(C)CC(=O)C(O)=C(C)[C@@H]1C[C@H]3OC(=O)[C@H](OC(=O)/C=C(\C)C(C)C)[C@@H]24: 4.19%
CCNC(=O)c1[nH]nc(-c2cc(Cl)c(O)cc2O)c1-c1ccc(OC)cc1: 4.3%
Cc1cc(C(=O)Nc2cc(Oc3ccc4nc(NC(=O)C5CC5)cn4n3)ccc2C)n(C)n1: 6.1%
NC(=O)c1[nH]cnc1O: -0.26%
COc1ccc2cc(OCC3(C(=O)O)CN(C(=O)c4ccc(F)cc4)C3)ccc2c1: 5.73%
CCOC(=O)NNc1nncc2ccccc12: 0.02%
O=C1CCCCCCCCCCCCCCO1: -0.87%
C[n+]1c2cc(N)ccc2cc2ccc(N)cc21: 45.5%
CN1C(=O)CCS(=O)(=O)C1c1ccc(Cl)cc1 (stereo not drawn): 5.96%
CC(C)N(C[C@H]1O[C@@H](n2cnc3c(N)ncnc32)[C@H](O)[C@@H]1O)[C@H]1C[C@@H](CCc2nc3cc(C(C)(C)C)ccc3[nH]2)C1: 2.58%
CCN(C(=O)c1c(O)c2c(Cl)cccc2n(C)c1=O)c1ccccc1: 2.41%
O=C(c1cc2ccccc2o1)N1CCN(Cc2ccccc2)CC1: 5.91%
Cc1cccc(-c2[nH]c(CNc3ccccc3F)nc2-c2ccc3ncnn3c2)n1: 0.87%
CCS(=O)(=O)N(C)[C@H]1c2cc(C#N)ccc2OC(C)(C)[C@@H]1O: -0.44%
CC(C)(Sc1ccncc1-c1ccc(C#N)c2ccccc12)C(=O)O: 2.5%
CC(=O)SC[C@@H](C)C(=O)N1CCC[C@H]1C(=O)N[C@@H](Cc1ccccc1)C(=O)O: 1.67%
Cn1nnc2c(C(N)=O)ncn2c1=O: 1.59%
C=CC1=C(C(=O)O)N2C(=O)[C@@H](NC(=O)/C(=N\O)c3csc(N)n3)[C@H]2SC1: 8.97%

Sample 3
Target: RNA binding protein fox-1 homolog 2, RRM domain, GST-SBP tag (RBFOX2, Homo sapiens, UniProt O43251-10, residues 100-194)
Technique: RNA Bind-n-Seq
Form: RNA
Sample: in vitro
Concentration: 365 nM
Setting: natural RNA segment, single round, ends assumed
Baseline: no-protein control
Direction: higher = stronger binding
Quantity: RBNS enrichment (R)
Shared flanks, not repeated: GGGAGUUCUACAGUCCGACGAUC … UGGAAUUCUCGGGUGCCAA
Residues (chain): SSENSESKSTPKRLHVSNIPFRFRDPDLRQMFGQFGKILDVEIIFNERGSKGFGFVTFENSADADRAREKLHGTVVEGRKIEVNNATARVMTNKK
UCUUGGCGUUUUGCAACCCAUGCUGGCCUCCCUCCUGCAGAUGGCAUAGGAGUCCGUCUGUCUUUGGACUGUCUCCUCUGCUGUUGUUCCUGCUCUCUCCGUUUCUGUCU: 0.786
CGUGGUGGCUUUUCAUCCAGGCCUCGUAGCCAACCGUUUAAGUGCAAAAUAGAAUUAAGCAAUGGGUAAGCAAAAUAGGGUUGACAAGAUAUUUGGGGGUUAUUCGGGUU: 0.809
CCAGAAACUGUCGAUGACUCCGAAGAUUUACCAGAGUGUCAAUCUCUCACCGGGUGAUUCAUCAAAUUACCUACCAAGAGCUCCAAGAGGGGCUCCCUGCAAUGGACGAG: 0.372
GCUCCAAGGAUGUGUUGGACUCUGUGCUCCAGUGGGGCACUGGCUGCACGUGGGUCCUUGGAGAUGCGUGACCCAUGUCUCUGGCUGGUAAUGUUGCCUGCAGCCCACAU: 2.78
CUGCUUCCAUGUAGAGAAGUGGGACAGCAGGCCCUCCUUGGAGUUUCUGCACAGGUUUAGGUGAGUAGACCACAUGCCCUAUGAGGCAAGCACCGAGCAAACCCUAGGGU: 0.255
UCAGUUUACAUUUCUGAUACAUGCAGAUAGCAGAUGUCUUUAAAUGAAAUACAUGUAUAUUGUGUAUGGACUUAAUUAUGCACAUGCUCAGAUGUGUAGACAUCCUCCGU: 0.322
CAUUAUGCCUUAGAAAUGCACAUUCUGUAUUUUGUGGGAUGAUAAUCUAAUUCAGUAUAGAAUAUGCUGUUUGGCAAUGAGUUUGUGGCCAGAUUUCAAAUAGGGAGUUA: 0.626
GGUCAGCAUUACAUUUGAGAGAAUACUAGACAUGACUACACUUAUUAGGGCUAGUGACUUUCUCAAACUCAGAAGCUAAAAAGCAGCCUAGAUGACUAUGCACACACUGG: 0.391

Sample 4
Target: Interferon regulatory factor 3, full length, phosphomimetic (IRF3, Homo sapiens, UniProt Q14653, residues 1-427, S386D/S396D/S398D/S402D/T404D/S405D)
Technique: protein-binding microarray
Form: double-stranded DNA, one strand shown
Sample: in vitro
Concentration: 2540 nM top
Setting: 60-bp whole probe
With: salmon DNA 0.4 mg/ml
Baseline: random background probes
Direction: higher = stronger binding
Quantity: fitted relative affinity
Shared flanks, not repeated: GCCTAGCAC … GTCTTGATTCGCTTGACGCTGCTG
Residues (chain): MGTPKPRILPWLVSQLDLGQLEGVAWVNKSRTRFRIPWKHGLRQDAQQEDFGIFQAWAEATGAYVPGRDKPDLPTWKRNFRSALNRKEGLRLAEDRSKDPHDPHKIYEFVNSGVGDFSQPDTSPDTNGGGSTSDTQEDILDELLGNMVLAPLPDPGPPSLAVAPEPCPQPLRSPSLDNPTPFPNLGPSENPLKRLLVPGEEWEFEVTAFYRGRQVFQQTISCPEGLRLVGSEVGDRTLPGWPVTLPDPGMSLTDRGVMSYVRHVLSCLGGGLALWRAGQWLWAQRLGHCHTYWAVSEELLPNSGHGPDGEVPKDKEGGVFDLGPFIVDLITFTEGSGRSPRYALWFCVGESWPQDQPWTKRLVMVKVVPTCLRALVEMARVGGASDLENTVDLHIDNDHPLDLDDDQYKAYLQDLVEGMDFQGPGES
GACGGTTTCGGGACTGGGGTCGTGCTA: 4.63 z-score
GACGGTCTCGGTGTCGGGACGTGCTAG: 0.655 z-score
CAAGTTTTTATTTTCTGAATGTGCTAG: 3.11 z-score
TTAGATATCGGGTATCGATTAGTGCTA: 0.365 z-score
TTAGTTCTCCTTCTCCTTTAGTGCTAG: 4.68 z-score
TCAAGGTCCCTTTTCATACTGTGCTAG: 3.12 z-score
TCATGTCTGTGTTTCCTACTGTGCTAG: 1.64 z-score
GCCGAACTGAGTTTCGAGACGTGCTAG: 2.19 z-score

Sample 5
Target: Replicase polyprotein 1ab, main protease (rep, Severe acute respiratory syndrome coronavirus 2, UniProt P0DTD1)
Observed: enzyme activity
Action: inhibitor
Setting: with DTT
Quantity: pIC50
NC[C@H](O)c1ccc(O)c(O)c1: 7.05
CO[C@@H]1[C@H](OC(=O)NC(=O)CCl)CC[C@]2(CO2)[C@H]1[C@@]1(C)O[C@@H]1CC=C(C)C: < 4.70
O=C(/C=C/c1ccc(O)c(O)c1)O[C@H](Cc1ccc(O)c(O)c1)C(=O)O: < 4.70

Single results of other studies
AAAAAACAGGCCGATTCCGATCCCGGAAAA — relative absorbance (Probable WRKY transcription factor 33, N-terminal DNA-binding domain (WRKY33, Arabidopsis thaliana, UniProt Q8S8P5, residues 169-264); DNA-protein interaction ELISA; double-stranded DNA, one strand shown, in vitro, bacterial lysate; not given, whole dsDNA probe, crude lysate protein; baseline: highest signal in screen, higher = stronger binding): 17.6 % of maximum
COc1cc2c(cc1OC)CC(=O)N(CCCN(C)C[C@H]1Cc3cc(OC)c(OC)cc31)CC2.Cl — cell number (HEK-293T-ACE2; concentration not given; baseline: vehicle): 101%
